Measurements pooled from the literature.
“And” joins repeats or separate records; there may be more than shown.
Cell line: HepG2

SMILES	assay	conditions	how to read	endpoint	result
CC[C@@](C)(NC(C)=O)C(=O)N[C@@H](CC(N)=O)C(=O)N[C@@H](CC(C)C)C(=O)NC(C)(C)C(=O)N1CCC[C@H]1C(=O)N[C@@H](CO)C(=O)N[C@H](C(=O)NC(C)(C)C(=O)N1CCC[C@H]1C(=O)NC(C)(C)C(=O)N[C@@H](CC(C)C)C(=O)NC(C)(C)C(=O)N1CCC[C@H]1C(=O)N[C@H](CO)CC(C)C)C(C)C	cytotoxicity, MTS	48 h	–	EC50	> 25 µM
CCOc1cccc2c1[O][Pt-2]1([Cl])[N+](=C2)Cc2cccc[n+]21 (stereo not shown)	flow cytometry PI	concentration not given, 24 h	–	sub-G1 cells	60 to 65%
CC[C@H](C)[C@H](NC(=O)[C@H](C)NC(=O)[C@@H]1CCCN1C(=O)C(C)(C)NC(=O)[C@H](CC(C)C)NC(=O)[C@H](CCC(N)=O)NC(=O)C(C)(C)NC(C)=O)C(=O)NC(C)(C)C(=O)N1CCC[C@H]1C(=O)NC(C)(C)C(=O)N[C@@H](CC(C)C)C(=O)NC(C)(C)C(=O)N1CCC[C@H]1C(=O)N[C@H](CO)CC(C)C	cytotoxicity, MTS	48 h	–	EC50	> 25 µM
O=C1CC2(C1)C(=O)[O][Pt]1([Cl])([O]C(=O)C(Cl)Cl)([NH][C@@H]3CCCC[C@H]3[NH]1)[O]C2=O	annexin V-FITC/PI flow cytometry	50 µM, 24 h	–	early apoptotic cells	25%
CC[C@@]1(O)C(=O)OCc2c1cc1n(c2=O)Cc2cc3cc(OC(=O)CCCC(=O)NCC(=O)N[C@@H](Cc4ccccc4)C(=O)N[C@@H](Cc4ccccc4)C(=O)N[C@@H](Cc4ccc(OP(=O)(O)O)cc4)C(=O)NCC(=O)N[C@@H](CCC(=O)O)C(=O)N[C@@H](CCCNC(=N)N)C(=O)NCC(=O)N[C@@H](CC(=O)O)C(=O)O)ccc3nc2-1	annexin V/PI flow cytometry	200 nM, 48 h	–	apoptotic cells	~30%
CC(=O)N[C@H](C(=O)N[C@@H](C)C(=O)N[C@@H](CCC(N)=O)C(=O)N[C@@H](CCC(N)=O)C(=O)N[C@@H](C)C(=O)N[C@@H](C)C(=O)N[C@@H](CC(N)=O)C(=O)N[C@H](C(=O)N[C@@H](C)C(=O)N[C@@H](C)C(=O)N[C@H](C(=O)N[C@@H](CC(C)C)C(=O)N[C@@H](CCCCN)C(=O)N[C@@H](CC(N)=O)C(=O)N[C@@H](CO)C(=O)N[C@@H](CCCNC(=N)N)C(=O)N[C@@H](CO)C(=O)N[C@@H](CC(C)C)C(=O)NCC(=O)N[C@@H](CCC(=O)O)C(=O)N[C@@H](CC(N)=O)C(=O)N[C@@H](CC(=O)O)C(=O)N[C@@H](CC(=O)O)C(=O)NCC(=O)N[C@@H](CC(N)=O)C(=O)N[C@@H](CC(N)=O)C(=O)N[C@@H](CCC(=O)O)C(=O)N[C@@H](CC(=O)O)C(=O)N[C@@H](CC(N)=O)C(=O)N[C@@H](CCC(=O)O)C(=O)N[C@@H](CCCCN)C(=O)N[C@@H](CC(C)C)C(=O)N[C@@H](CCCNC(=N)N)C(N)=O)[C@@H](C)O)C(C)C)C(C)C	–	320 µg/mL, 15 days	baseline: control	colony formation	decreased
CCCCCCCC(=O)NC(C)(C)C(=O)NCC(=O)N[C@@H](CC(C)C)C(=O)NC(C)(C)C(=O)NCC(=O)NCC(=O)N[C@H](C(=O)NC(C)(C)C(=O)NCC(=O)N[C@H](C(=O)N[C@H](CO)CC(C)C)C(C)C)C(C)C	cytotoxicity, MTS	48 h	–	EC50	> 25 µM
O=C1/C(=C/c2ccc3c(c2)OCCO3)SC(=S)N1[C@@H]1O[C@H](CO)[C@@H](O)[C@H](O)[C@H]1O	item: Bax	IC50, 48 h	baseline: untreated	mRNA fold change	8.94 fold and 8.9 fold
CC(C)(O)[C@@H]1CC[C@](C)([C@H]2[C@@H](O)C[C@@]3(C)[C@@H]4C[C@H](O)[C@H]5C(C)(C)[C@@H](O)CC[C@@]56C[C@@]46CC[C@]23C)O1	CCK-8	20 µM, 24 h, together with: APAP 14 mM	–	viability	62.3%
Cc1ccc(Nc2ncc3c(n2)N(C)C(=O)N(c2cc(NC(=O)c4cc(-n5cnc(C)c5)cc(C(F)(F)F)c4)ccc2C)C3)cn1	cell growth or viability, ATP luminescence	72 h	–	GI50	0.879 µM
CC[C@H](C)[C@H](NC(=O)[C@H](C)NC(=O)[C@@H]1CCCN1C(=O)C(C)(C)NC(=O)[C@H](CC(C)C)NC(=O)[C@H](CC(N)=O)NC(=O)[C@@](C)(CC)NC(C)=O)C(=O)NC(C)(C)C(=O)N1CCC[C@H]1C(=O)N[C@](C)(CC)C(=O)N[C@@H](CC(C)C)C(=O)NC(C)(C)C(=O)N1CCC[C@H]1C(=O)N[C@H](CO)CC(C)C	cytotoxicity, MTS	48 h	–	EC50	> 25 µM
C[C@@H](O)[C@H](NC(=O)[C@H](CCCCN)NC(=O)CCCC(=O)O)C(=O)NCC(=O)N[C@@H](CC(=O)O)C(=O)N[C@@H](CCC(=O)O)C(=O)N[C@@H](CCCCN)C(=O)N[C@@H](CCCCN)C(=O)NCC(=O)NCC(=O)N[C@@H](Cc1ccc(O)cc1)C(=O)NCC(=O)N[C@@H](CCCNC(=N)N)C(=O)N[C@@H](CCCCN)C(=O)N[C@@H](CCCCN)C(=O)N[C@@H](CCCNC(=N)N)C(=O)N[C@@H](CCCNC(=N)N)C(=O)N[C@@H](CCC(N)=O)C(=O)N[C@@H](CCCNC(=N)N)C(=O)N[C@@H](CCCNC(=N)N)C(=O)N[C@@H](CCCNC(=N)N)C(N)=O	apoptosis, flow cytometry	40 µM, 16 h	–	caspase-3 positive cells	0.88%
CC[C@@]1(O)C(=O)OCc2c1cc1n(c2=O)Cc2cc3cc(OC(=O)CCCC(=O)NCC(=O)N[C@@H](Cc4ccccc4)C(=O)N[C@@H](Cc4ccccc4)C(=O)N[C@@H](Cc4ccc(OP(=O)(O)O)cc4)C(=O)NCCSSCCNC(=O)CCC(=O)N[C@@H](CCC(=O)O)C(=O)N[C@@H](CCCNC(=N)N)C(=O)NCC(=O)N[C@@H](CC(=O)O)C(=O)O)ccc3nc2-1	annexin V/PI flow cytometry	200 nM, 48 h	–	necrotic cells	2.44%

Some of these lines once more:
SMILES	assay	conditions	how to read	endpoint	result
CC[C@@]1(O)C(=O)OCc2c1cc1n(c2=O)Cc2cc3cc(OC(=O)CCCC(=O)NCC(=O)N[C@@H](Cc4ccccc4)C(=O)N[C@@H](Cc4ccccc4)C(=O)N[C@@H](Cc4ccc(OP(=O)(O)O)cc4)C(=O)NCC(=O)N[C@@H](CCC(=O)O)C(=O)N[C@@H](CCCNC(=N)N)C(=O)NCC(=O)N[C@@H](CC(=O)O)C(=O)O)ccc3nc2-1	annexin V/PI flow cytometry	200 nM, 48 h	–	apoptotic cells	~30%
